Measured values from different studies.
Protocols differ between the studies behind these lines. Several values in a cell are separate wells, animals, samples, runs or records. ± gives the spread as reported.
ESR1: Estrogen receptor (ESR1, Homo sapiens, UniProt P03372)
Moesin with CD44: Moesin, with CD44 (Homo sapiens, UniProt P26038)
Grm2: Metabotropic glutamate receptor 2 (Grm2, Rattus norvegicus, UniProt P31421)
APP amyloid-beta peptide: Amyloid-beta precursor protein, amyloid-beta peptide (APP, Homo sapiens, UniProt P05067)
Tubulin alpha/beta heterodimer: Tubulin alpha/beta heterodimer (Leishmania infantum, UniProt A0A381MCS3+A4HTR0)

Amino acid sequences for entries named in this document (tags omitted). Residues count along the entry.
UniProt P03372, whole entry: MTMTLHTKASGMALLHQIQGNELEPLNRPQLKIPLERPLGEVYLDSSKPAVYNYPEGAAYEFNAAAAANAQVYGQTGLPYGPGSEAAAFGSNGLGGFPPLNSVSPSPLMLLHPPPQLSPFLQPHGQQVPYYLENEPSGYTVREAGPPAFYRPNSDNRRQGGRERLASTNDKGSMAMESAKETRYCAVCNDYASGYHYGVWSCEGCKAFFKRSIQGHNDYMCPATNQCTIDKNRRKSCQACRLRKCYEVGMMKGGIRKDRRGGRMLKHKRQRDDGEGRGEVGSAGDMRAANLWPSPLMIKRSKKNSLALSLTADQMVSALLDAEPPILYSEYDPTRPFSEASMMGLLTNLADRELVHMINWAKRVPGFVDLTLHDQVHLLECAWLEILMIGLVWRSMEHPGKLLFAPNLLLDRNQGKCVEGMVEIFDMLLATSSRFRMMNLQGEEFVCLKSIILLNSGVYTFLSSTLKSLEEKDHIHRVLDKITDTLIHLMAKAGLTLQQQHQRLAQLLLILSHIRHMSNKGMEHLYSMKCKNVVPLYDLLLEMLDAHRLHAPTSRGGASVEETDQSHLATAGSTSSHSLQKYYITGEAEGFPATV
UniProt P31424, 21-1203 limits assumed: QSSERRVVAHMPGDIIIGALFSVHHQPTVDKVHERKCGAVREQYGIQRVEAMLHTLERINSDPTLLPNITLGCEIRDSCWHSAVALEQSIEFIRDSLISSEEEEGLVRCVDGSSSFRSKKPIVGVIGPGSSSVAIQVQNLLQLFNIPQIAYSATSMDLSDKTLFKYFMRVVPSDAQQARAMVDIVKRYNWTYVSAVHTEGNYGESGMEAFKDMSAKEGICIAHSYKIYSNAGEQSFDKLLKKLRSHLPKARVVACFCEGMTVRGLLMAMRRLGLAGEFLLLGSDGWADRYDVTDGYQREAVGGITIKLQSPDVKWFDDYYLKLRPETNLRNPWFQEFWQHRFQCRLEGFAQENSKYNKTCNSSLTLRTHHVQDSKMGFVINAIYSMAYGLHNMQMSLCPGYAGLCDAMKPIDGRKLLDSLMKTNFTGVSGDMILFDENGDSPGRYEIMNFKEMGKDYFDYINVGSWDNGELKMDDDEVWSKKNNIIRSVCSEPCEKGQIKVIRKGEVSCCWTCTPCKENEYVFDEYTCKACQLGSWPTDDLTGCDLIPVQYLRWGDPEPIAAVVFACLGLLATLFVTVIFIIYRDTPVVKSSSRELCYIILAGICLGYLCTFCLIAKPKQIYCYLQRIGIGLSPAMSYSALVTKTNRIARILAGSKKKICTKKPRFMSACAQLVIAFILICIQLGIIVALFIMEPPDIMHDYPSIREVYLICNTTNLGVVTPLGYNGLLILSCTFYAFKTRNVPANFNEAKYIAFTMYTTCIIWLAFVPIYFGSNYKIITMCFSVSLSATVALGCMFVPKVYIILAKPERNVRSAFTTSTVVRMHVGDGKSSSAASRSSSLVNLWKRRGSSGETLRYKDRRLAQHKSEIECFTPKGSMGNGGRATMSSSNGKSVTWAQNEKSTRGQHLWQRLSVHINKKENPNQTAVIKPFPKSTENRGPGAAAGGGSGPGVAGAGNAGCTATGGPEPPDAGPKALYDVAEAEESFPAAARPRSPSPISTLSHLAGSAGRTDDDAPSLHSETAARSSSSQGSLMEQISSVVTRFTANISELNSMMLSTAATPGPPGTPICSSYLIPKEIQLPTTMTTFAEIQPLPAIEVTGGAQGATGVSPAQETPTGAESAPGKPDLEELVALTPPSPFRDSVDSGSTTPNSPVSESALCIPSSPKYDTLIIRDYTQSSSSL
UniProt P0DMV8, whole entry: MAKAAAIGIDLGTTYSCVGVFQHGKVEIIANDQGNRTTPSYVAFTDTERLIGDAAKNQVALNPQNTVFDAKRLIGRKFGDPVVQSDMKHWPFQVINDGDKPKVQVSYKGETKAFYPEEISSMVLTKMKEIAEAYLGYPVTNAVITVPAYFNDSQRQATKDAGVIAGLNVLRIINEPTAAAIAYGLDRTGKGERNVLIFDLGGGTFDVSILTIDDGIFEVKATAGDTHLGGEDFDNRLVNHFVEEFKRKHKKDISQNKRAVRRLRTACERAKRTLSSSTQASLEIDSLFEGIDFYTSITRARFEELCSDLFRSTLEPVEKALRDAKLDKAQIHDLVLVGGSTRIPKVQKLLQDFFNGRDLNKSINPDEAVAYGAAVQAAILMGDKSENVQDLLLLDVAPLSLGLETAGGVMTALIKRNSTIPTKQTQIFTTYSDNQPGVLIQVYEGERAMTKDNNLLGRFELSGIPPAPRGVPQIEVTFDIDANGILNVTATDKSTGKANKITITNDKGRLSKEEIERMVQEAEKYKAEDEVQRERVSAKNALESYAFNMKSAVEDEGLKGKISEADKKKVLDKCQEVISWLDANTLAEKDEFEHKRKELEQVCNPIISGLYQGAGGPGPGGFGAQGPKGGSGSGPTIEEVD
UniProt Q9NRM7, whole entry: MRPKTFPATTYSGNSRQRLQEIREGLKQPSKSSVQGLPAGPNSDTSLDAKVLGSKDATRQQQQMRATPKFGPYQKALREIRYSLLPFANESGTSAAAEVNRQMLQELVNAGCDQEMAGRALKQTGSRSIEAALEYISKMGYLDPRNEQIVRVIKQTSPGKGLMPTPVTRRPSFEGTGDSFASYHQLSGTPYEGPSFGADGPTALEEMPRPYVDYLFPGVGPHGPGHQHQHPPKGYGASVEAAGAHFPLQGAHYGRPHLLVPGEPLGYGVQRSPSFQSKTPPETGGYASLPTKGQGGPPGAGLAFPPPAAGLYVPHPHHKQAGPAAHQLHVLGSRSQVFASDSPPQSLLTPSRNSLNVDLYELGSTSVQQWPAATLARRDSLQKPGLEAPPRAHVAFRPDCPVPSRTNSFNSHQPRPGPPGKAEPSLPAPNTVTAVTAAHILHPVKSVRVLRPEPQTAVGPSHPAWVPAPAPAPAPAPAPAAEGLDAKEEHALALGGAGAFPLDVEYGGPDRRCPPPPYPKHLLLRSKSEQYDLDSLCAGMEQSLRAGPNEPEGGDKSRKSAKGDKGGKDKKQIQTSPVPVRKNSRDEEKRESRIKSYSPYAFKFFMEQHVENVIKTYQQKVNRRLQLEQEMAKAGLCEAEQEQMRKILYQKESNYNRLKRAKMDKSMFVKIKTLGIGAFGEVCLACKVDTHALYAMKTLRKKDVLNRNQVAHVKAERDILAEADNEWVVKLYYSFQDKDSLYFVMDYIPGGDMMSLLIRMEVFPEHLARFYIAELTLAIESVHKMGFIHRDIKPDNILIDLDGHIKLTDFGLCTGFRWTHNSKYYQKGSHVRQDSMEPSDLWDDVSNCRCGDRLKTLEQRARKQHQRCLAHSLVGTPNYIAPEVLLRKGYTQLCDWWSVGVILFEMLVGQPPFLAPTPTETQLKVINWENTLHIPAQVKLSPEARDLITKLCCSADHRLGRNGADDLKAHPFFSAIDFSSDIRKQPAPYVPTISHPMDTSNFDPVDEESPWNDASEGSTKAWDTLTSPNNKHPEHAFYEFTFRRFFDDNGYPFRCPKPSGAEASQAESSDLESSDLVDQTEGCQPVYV
UniProt P14902, whole entry: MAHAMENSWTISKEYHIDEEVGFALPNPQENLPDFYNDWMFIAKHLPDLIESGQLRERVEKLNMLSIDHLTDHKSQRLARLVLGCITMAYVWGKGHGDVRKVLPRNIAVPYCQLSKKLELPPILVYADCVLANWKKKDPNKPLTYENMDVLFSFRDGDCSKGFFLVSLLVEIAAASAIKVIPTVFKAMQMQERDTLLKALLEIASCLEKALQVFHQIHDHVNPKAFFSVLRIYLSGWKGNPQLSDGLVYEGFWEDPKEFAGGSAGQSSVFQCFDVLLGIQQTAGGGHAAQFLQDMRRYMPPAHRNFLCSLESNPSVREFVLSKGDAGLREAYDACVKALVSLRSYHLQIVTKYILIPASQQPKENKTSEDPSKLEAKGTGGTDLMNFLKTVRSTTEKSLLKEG
UniProt Q8IXJ6, whole entry, looked up: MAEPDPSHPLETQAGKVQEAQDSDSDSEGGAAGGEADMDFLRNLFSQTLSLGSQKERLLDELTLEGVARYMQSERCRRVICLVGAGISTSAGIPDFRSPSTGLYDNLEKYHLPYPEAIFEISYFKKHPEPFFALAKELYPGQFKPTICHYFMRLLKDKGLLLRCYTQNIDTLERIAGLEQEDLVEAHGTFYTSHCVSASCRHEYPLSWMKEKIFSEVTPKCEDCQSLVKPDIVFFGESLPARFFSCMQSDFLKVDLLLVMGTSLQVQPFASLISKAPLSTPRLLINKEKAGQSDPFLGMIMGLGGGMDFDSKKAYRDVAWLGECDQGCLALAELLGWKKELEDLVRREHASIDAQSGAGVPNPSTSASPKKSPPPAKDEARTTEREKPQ
UniProt Q6ZVD8, whole entry, looked up: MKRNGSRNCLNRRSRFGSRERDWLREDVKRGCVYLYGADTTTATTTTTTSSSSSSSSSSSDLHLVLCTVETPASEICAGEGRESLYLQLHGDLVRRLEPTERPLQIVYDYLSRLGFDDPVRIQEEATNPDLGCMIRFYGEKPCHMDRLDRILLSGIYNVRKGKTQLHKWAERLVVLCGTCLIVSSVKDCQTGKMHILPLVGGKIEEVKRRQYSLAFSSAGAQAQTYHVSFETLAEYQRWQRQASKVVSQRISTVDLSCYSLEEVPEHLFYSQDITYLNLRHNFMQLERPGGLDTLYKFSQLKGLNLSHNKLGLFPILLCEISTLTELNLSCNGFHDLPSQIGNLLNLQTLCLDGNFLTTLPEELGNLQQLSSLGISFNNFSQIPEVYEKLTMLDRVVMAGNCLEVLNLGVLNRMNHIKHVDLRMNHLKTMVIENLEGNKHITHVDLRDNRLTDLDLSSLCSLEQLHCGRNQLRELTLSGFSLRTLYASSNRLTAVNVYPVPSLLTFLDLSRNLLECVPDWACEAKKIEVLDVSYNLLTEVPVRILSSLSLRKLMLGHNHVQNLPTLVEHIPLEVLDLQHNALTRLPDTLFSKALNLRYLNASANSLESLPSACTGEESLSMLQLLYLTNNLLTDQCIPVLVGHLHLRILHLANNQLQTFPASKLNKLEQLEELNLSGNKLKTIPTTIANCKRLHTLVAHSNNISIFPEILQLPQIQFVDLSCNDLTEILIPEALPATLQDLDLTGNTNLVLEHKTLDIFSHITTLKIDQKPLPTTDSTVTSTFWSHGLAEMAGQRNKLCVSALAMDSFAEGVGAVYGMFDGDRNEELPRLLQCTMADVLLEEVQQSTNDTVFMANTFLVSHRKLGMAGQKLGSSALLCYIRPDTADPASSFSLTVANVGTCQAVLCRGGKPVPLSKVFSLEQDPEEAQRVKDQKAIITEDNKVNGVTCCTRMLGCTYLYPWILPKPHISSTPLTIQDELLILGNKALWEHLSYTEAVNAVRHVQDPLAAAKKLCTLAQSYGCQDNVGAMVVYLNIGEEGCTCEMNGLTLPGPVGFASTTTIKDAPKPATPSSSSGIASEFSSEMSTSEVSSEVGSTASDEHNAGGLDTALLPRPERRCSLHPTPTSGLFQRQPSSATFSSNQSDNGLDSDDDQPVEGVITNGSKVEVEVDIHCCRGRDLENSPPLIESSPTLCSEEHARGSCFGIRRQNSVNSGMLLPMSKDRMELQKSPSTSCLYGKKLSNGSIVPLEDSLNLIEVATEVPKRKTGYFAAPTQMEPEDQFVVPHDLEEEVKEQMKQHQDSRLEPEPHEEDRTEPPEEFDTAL
UniProt O00167, whole entry: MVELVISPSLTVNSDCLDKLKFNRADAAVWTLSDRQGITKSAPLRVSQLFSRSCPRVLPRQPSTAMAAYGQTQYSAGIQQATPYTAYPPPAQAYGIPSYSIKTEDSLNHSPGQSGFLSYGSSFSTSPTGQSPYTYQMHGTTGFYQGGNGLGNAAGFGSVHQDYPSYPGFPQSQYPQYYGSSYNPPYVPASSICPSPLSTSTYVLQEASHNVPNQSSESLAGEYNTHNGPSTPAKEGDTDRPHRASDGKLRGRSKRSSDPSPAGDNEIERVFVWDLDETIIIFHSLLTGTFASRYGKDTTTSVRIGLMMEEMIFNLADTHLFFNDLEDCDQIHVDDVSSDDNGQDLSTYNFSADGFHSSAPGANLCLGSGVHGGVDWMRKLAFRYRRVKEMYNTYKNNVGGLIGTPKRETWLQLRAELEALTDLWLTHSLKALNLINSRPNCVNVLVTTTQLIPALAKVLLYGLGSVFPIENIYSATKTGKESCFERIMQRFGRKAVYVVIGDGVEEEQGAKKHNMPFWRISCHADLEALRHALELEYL
UniProt P28300, whole entry, looked up: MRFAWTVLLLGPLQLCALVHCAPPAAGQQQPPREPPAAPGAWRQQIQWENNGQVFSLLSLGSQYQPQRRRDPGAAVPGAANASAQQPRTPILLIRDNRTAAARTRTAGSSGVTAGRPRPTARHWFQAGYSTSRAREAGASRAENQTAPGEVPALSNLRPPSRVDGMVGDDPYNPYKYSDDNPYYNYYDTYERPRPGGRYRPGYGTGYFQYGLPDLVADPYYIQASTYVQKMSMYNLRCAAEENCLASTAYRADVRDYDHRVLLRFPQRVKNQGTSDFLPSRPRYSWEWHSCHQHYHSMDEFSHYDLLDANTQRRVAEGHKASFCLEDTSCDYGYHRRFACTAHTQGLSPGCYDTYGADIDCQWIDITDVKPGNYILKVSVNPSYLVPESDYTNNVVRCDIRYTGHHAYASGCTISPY

COc1ccc(SCC(=O)Nc2ccc3nc(SCC(=O)NCC(C)C)sc3c2)cc1  IC50 (ESR1; reporter gene, antagonist; HEC-1 transfected ERα luciferase reporter): > 50000 nM
O=C(Nc1ccc(-c2nc3ccccc3s2)cc1)c1cccc([N+](=O)[O-])c1  IC50 (Moesin with CD44; MSN-CD44 interaction, inhibitor, TR-FRET; added: CD44): > 100000 nM
Nc1ncc(-c2ccc3ncnc(N4CCc5cc(F)c(Cl)cc54)c3c2)cn1  AUC(0-t) (CD1 mouse, brain; intraperitoneal, 50 mg/kg): 117 µg·h/mL
N#Cc1cnc(Nc2nc3ccccc3o2)nc1-c1ccc(Cl)cc1  IC50 (Grm5 (Rattus norvegicus, UniProt P31424); calcium mobilization, negative allosteric modulator; added: glutamate EC80): 315 ± 110 nM
O=c1[nH]c2ccc(S(=O)(=O)N3CCN(Cc4ccc5[nH]ccc5c4)CC3)cc2o1  IC50 (NUDT15 (Homo sapiens, UniProt Q9NV35); enzyme activity, inhibitor, malachite green; added: dGTP): 219 nM
Cc1cc(SCc2sc(-c3cc(Cl)cc(C(F)(F)F)c3)nc2C)ccc1OCC(=O)O  CC50 (HEK293T; 18 h): > 33 µM
O=C(O)CNC(=O)c1cc(C(=O)O)cc([C@H]2CCN[C@@H]2C(=O)O)c1  IC50 (Glutamate receptor ionotropic, NMDA 2A, with GluN1 (Grin2a, Rattus norvegicus, UniProt Q00959); ion current, antagonist, two-electrode voltage clamp; Xenopus oocytes; GluN1/GluN2A, added: glycine 100 µM and glutamate 1 µM): 1320 ± 50 nM
Cc1cc(SCc2sc(-c3ccc(OC(F)(F)F)c(F)c3)nc2C)ccc1OCC(=O)O  CC50 (HEK293T; 18 h): > 50 µM
O=C(NCc1ccc(Cl)cc1)[C@@H]1C[C@@H](O)CN1C(=O)c1ccc(Cl)cc1  IC50 (von Hippel-Lindau disease tumor suppressor, with elongin B, C (VHL, Homo sapiens, UniProt P40337); binding, fluorescence polarization; 10% DMSO, added: FAM-HIF1α peptide tracer): 70000 ± 10000 nM
Cc1ccc(SCC(=O)Nc2ccc3nc(SCC(=O)NCC(C)C)sc3c2)c(C)c1  IC50 (ESR1; reporter gene, antagonist; HEC-1 transfected ERα luciferase reporter): 20000 to 50000 nM
CCn1c(=Cc2cccc[n+]2C)sc(=C2Sc3ccccc3N2C)c1=O  IC50 (Heat shock 70 kDa protein 1A, with BAG3 (HSPA1A, Homo sapiens, UniProt P0DMV8); Hsp70-Bag3 interaction, inhibitor, flow cytometry (FCPIA); added: labeled Bag3 50 nM): > 100000 nM
N#Cc1cccc(OC(=O)N2CC(OC(c3ccccc3)c3ccccc3)C2)c1  IC50 (ABHD6 (Homo sapiens, UniProt Q9BV23); inhibitor, fluorescence): 198 ± 2.8 nM
CCN1C(=O)c2ccccc2N(C)c2nc(Nc3ccc(N4CCN(C)CC4)cc3OC)ncc21  IC50 (TNK2 (Homo sapiens, UniProt Q07912); binding, inhibitor, LanthaScreen binding): 545 nM
O=C(N1CCN(c2ccc([N+](=O)[O-])c3ncccc23)CC1)C12CC3CC(CC(O)(C3)C1)C2  IC50 (TLR8 (Homo sapiens, UniProt Q9NR97); reporter gene, inhibitor, SEAP reporter; HEK-Blue TLR8): 1470 ± 450 nM
NC(=O)c1cn(-c2ccc(F)cc2)c2ccc(CCc3ccncc3)cc2c1=O  IC50 (Grm2; calcium mobilization, negative allosteric modulator): 471 nM
COc1ccc2[nH]cc(/C=C/c3ccc(OS(C)(=O)=O)cc3)c2c1  IC50 (APP amyloid-beta peptide; Aβ42 oligomerisation, ELISA): > 20000 nM
CCC(=O)Nc1ccc(-c2csc(NC(=O)c3cccc(OC)c3)n2)cc1  IC50 (Scavenger receptor class B member 1 (Mus musculus, UniProt Q61009); DiI-HDL uptake, inhibitor; mouse cells; added: DiI-HDL): 85 nM
O=C(Nc1ccc(Cl)cc1)C(NS(=O)(=O)c1cccs1)c1cccc(F)c1 (stereo not shown)  IC50 (Uracil nucleotide/cysteinyl leukotriene receptor, long isoform (GPR17, Homo sapiens, UniProt Q13304); calcium mobilization, antagonist; 1321-N1): 14800 ± 610 nM
COc1ccc2nc3ccccc3c(SCCCN)c2c1  IC50 (DYRK2 (Homo sapiens, UniProt Q92630); inhibitor; added: Woodtide peptide): 190 nM
Clc1ccc(C2(c3ccc(-c4ccnc5ncccc45)cc3)CCNCC2)cc1  IC50 (LATS2 (Homo sapiens, UniProt Q9NRM7); kinase activity, inhibitor, radiometric HotSpot; added: ATP 10 µM): > 10000 nM
COc1ccc2[nH]cc(/C=C/c3cccnc3)c2c1  IC50 (IDO1 (Homo sapiens, UniProt P14902); enzyme activity, inhibitor): 12600 nM
CC(C)n1nnc(-c2cc(O)cc(Nc3ncnn4ccc(CN5CCC(N)CC5)c34)c2)n1  total brain concentration (mouse, brain; subcutaneous, 60 mg/kg, 90 min): 0.15 ± 0.03 µM
N#Cc1cccc(N2CCN(C(=O)CCCCCn3c(=S)[nH]c4ccccc4c3=O)CC2)c1  IC50 (ESR1; reporter gene, antagonist; HEC-1 cells transfected with ERα; added: estradiol 1 nM): 9900 nM
O=C(O)CCC(NS(=O)(=O)C(F)(F)F)C(=O)O (stereo not shown)  IC50 (FOLH1 (Homo sapiens, UniProt Q04609); enzyme activity, inhibitor, HPLC; 15 min, pH 7.4, 37 °C, 1% Triton X-100, added: 10 mM glutamate dipeptide substrate): > 100000 nM
COc1ccc(C(CCc2ccc(O)cc2OC)c2cc(CCC(=O)c3ccc(O)cc3)c(OC)cc2O)cc1 (racemic)  IC50 (ALOX5 (Homo sapiens, UniProt P09917); enzyme activity; cell-free; added: arachidonic acid 20 µM): 300 ± 90 nM
CNCCN(C)c1ccc(Nc2cc(NC3CC3)n3ncc(C#N)c3n2)cc1NC(C)=O  IC50 (CSNK2A1 (Homo sapiens, UniProt P68400); target engagement, NanoBRET; HEK293): 3.3 nM
CCCCCCCCCCCCNC(=S)NCCCC[C@H](NS(=O)(=O)c1ccccc1)C(=O)N[C@H](C)C(=O)N[C@@H](CCCNC(=N)N)C(N)=O  IC50 (SIRT2 (Homo sapiens, UniProt Q8IXJ6); demyristoylation, inhibitor; NAD+ 500 µM, added: myristoylated peptide 50 µM): 6600 ± 600 nM
Nc1c(S(=O)(=O)O)cc(Br)c2c1C(=O)c1ccccc1C2=O  IC50 (PH domain leucine-rich repeat-containing protein phosphatase 2 (Homo sapiens, UniProt Q6ZVD8); enzyme activity, inhibitor): 5220 ± 80 nM
Cc1cnc(C#Cc2cccc(-c3nn(-c4nc(C(=O)O)cs4)c(CCC4CC4)c3Cc3ccc(S(N)(=O)=O)c(F)c3)c2)s1  IC50 (LDHA (Homo sapiens, UniProt P00338); enzyme activity, inhibitor): 20 nM
Cc1ccc(S(=O)(=O)Oc2ccc(/C=C/c3c[nH]c4ccc(C#N)cc34)cc2)cc1  IC50 (APP amyloid-beta peptide; Aβ42 oligomerisation, ELISA): 6500 nM
CNC(=O)Oc1ccccc1C=C1Cc2cc(OC)c(OC)cc2C1=O  IC50 (Cocaine esterase (CES2, Homo sapiens, UniProt O00748); inhibitor; 3 min preincubation, added: fluorescein diacetate): 1180 ± 135 nM
COc1cc(Nc2ccnc3cc(C#N)ccc23)cc(OC)c1OC  IC50 (COQ8A (Homo sapiens, UniProt Q8NI60); target engagement, NanoBRET; HEK293 expressing NanoLuc fusion): 580 nM
CC(=NN=C1NC(=O)C(CC(=O)Nc2ccc(Cl)c(Cl)c2)S1)c1cccs1 (stereo not shown)  IC50 (PPP3CA (Homo sapiens, UniProt Q08209); phosphatase activity, inhibitor, malachite green; added: phosphopeptide substrate at Km): > 200000 nM
CN1CC[C@H](c2c(O)cc(O)c3c(=O)cc(-c4cccc(Cl)c4)oc23)[C@H](O)C1  IC50 (Cyclin-dependent kinase 9, with cyclin T1 (CDK9, Homo sapiens, UniProt P50750); inhibitor; with cyclin T1, GST-CTD substrate): 4.4 nM
COc1ccccc1C(=O)Nc1ccc(-c2nc3ccc(NC(=O)c4ccccc4OC)cc3s2)cc1  IC50 (Moesin with CD44; MSN-CD44 interaction, inhibitor, TR-FRET; added: CD44): 47700 nM
CN1CCN(Cc2ccc(NC(=O)c3cncc(C#Cc4cncc5ncccc45)c3)cc2C(F)(F)F)CC1  IC50 (Kinesin-1 heavy chain/ Tyrosine-protein kinase receptor RET (RET/KIF5B, Homo sapiens, UniProt P07949+P33176); cell viability, inhibitor, CellTiter-Glo; Ba/F3 KIF5B-RET wild type): 2.86 ± 0.12 nM
COc1cc([C@@H]2c3cc4c(cc3[C@](O)(C3(O)CCOCC3)[C@H]3COC(=O)[C@H]23)OCO4)cc(OC)c1OC  IC50 (Tubulin alpha/beta heterodimer; tubulin polymerization, inhibitor; 37 °C, added: tubulin 1.2 mg/mL): 5500 nM
O=C(N/N=C/c1ccc(Sc2ccccn2)s1)c1ccccc1Cl  IC50 (Protein phosphatase EYA2 (Homo sapiens, UniProt O00167); tyrosine phosphatase activity, inhibitor): 4750 nM
CCc1cc2c(cc1C(C)=NN=C(C)c1cc3c(cc1CC)C(C)(C)CCC3(C)C)C(C)(C)CCC2(C)C  IC50 (Bcl-2-related protein A1 (Mus musculus, UniProt Q07440, C113S/P104K); binding, fluorescence polarization; added: FITC-Noxa peptide): > 400000 nM
CCN(CCc1ccc(Cl)c(Cl)c1)C[C@H](O)COc1ccc(NS(C)(=O)=O)cc1  IC50 (Glutamate NMDA receptor; Grin1/Grin2b (Grin1/Grin2b, Rattus norvegicus, UniProt P35439+Q00960); pH 7.6): 67 nM
CN(Cc1cccnc1)c1ccc2c(c1)c(=O)c(C(N)=O)cn2-c1ccc(F)cc1  IC50 (Grm2; calcium mobilization, negative allosteric modulator): 201 nM
Cn1nc(-c2ccc(CC(=O)Nc3cc(C(C)(C)C)on3)cc2)c2c(N)ncnc21  IC50 (NTRK1 (Homo sapiens, UniProt P04629); inhibitor): 200 nM and 202 nM
Cn1cnc(S(=O)(=O)N2C[C@@H]3[C@H](C2)[C@@]3(CNC(=O)c2ccc(Cl)cc2Cl)CC2CC2)c1 (relative stereo)  IC50 (SLC6A9 (Homo sapiens, UniProt P48067); glycine uptake, inhibitor, [14C]glycine uptake; cells expressing target): 4 nM
CCOc1ccc(S(=O)(=O)NC(=O)Cc2ccc(Br)cc2)cc1Br  IC50 (CGAS (Homo sapiens, UniProt Q8N884); enzyme activity, inhibitor, Kinase-Glo ATP depletion; 25 °C, 100 nM enzyme): 4420 nM
COc1cc([C@@H]2c3cc4c(cc3[C@@H](C=C(C)C)[C@H]3COC(=O)[C@H]23)OCO4)cc(OC)c1OC  IC50 (Tubulin alpha/beta heterodimer; tubulin polymerization, inhibitor; 37 °C, added: tubulin 1.2 mg/mL): 4100 ± 100 nM
O=C(Cn1c(-c2nccs2)nc2ccccc21)Nc1ccc(Br)cc1  IC50 (IMPDH2 (Homo sapiens, UniProt P12268); enzyme activity, inhibitor; lower bound): ≥ 40000 nM
CCOc1ccc(Nc2nc(-c3sc(N)nc3C)cs2)cc1  IC50 (Protein-lysine 6-oxidase (Homo sapiens, UniProt P28300); LOX activity, inhibitor; MDA-MB-231): > 10000 nM and 12500 nM
COC(=O)C1(C)C=C(C(=O)Nc2cccc(C(=O)Nc3ccc(Nc4nccc(-c5cccnc5)n4)c(C)c3)c2)C(=O)C1 (stereo not shown)  IC50 (MAPK8 (Homo sapiens, UniProt P45983); enzyme activity; added: glutathione 10 mM): 37 ± 4 nM
CCOC(=O)/C=C/CNCCCCN1c2ccccc2CCc2ccc(Cl)cc21  inhibition (E3 ubiquitin-protein ligase Itchy homolog, HECT domain (Homo sapiens, UniProt Q96J02); ubiquitination, Ub-TR-FRET; concentration not given, HECT domain, up to high concentrations): no inhibition

Excerpt of the above:
NC(=O)c1cn(-c2ccc(F)cc2)c2ccc(CCc3ccncc3)cc2c1=O  IC50 (Grm2; calcium mobilization, negative allosteric modulator): 471 nM
COc1ccc2[nH]cc(/C=C/c3ccc(OS(C)(=O)=O)cc3)c2c1  IC50 (APP amyloid-beta peptide; Aβ42 oligomerisation, ELISA): > 20000 nM
CCC(=O)Nc1ccc(-c2csc(NC(=O)c3cccc(OC)c3)n2)cc1  IC50 (Scavenger receptor class B member 1 (Mus musculus, UniProt Q61009); DiI-HDL uptake, inhibitor; mouse cells; added: DiI-HDL): 85 nM
O=C(Nc1ccc(Cl)cc1)C(NS(=O)(=O)c1cccs1)c1cccc(F)c1 (stereo not shown)  IC50 (Uracil nucleotide/cysteinyl leukotriene receptor, long isoform (GPR17, Homo sapiens, UniProt Q13304); calcium mobilization, antagonist; 1321-N1): 14800 ± 610 nM
COc1ccc2nc3ccccc3c(SCCCN)c2c1  IC50 (DYRK2 (Homo sapiens, UniProt Q92630); inhibitor; added: Woodtide peptide): 190 nM
